Assay results pooled from the literature.
Every numbered part comes from another study and shows a few of its results, in no order. Changes are numbered by the printed parent chain.

Block 1 — method: protein-binding microarray; form: double-stranded DNA, one strand shown; medium: in vitro; concentration: 2540 nM top; notes: 60-bp whole probe; added: salmon DNA 0.4 mg/ml; baseline: random background probes; direction: higher = stronger binding; quantity: fitted relative affinity; all sequences stand within: GCCTAGCAC … GTCTTGATTCGCTTGACGCTGCTG
Target: Interferon regulatory factor 3, full length, phosphomimetic (IRF3, Homo sapiens, UniProt Q14653, residues 1-427, S386D/S396D/S398D/S402D/T404D/S405D)
Residues (chain): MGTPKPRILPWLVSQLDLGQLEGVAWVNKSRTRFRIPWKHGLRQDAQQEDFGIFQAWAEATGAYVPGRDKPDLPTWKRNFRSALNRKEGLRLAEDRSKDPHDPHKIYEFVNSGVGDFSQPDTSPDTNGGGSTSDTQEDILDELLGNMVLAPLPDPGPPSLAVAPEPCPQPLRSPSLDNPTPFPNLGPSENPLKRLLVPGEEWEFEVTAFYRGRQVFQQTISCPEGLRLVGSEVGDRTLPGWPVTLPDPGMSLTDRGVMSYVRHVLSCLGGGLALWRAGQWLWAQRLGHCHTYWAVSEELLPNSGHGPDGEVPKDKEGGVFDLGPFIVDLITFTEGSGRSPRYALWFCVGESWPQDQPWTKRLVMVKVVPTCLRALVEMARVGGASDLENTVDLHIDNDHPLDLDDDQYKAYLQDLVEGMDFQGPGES
Strand = TAAGGTCTCGGACTGGGTTAGTGCTAG; result = -0.586 z-score
Strand = GACGATATCGGGACTGGAGGCGTGCTA; result = -0.0526 z-score
Strand = TTAGGACTGGGTTTCGGATAGTGCTAG; result = 2.05 z-score
Strand = TCAAGCATTACTTTAGGACTGTGCTAG; result = -0.407 z-score
Strand = GACGATATCGGGTATCGATACGTGCTA; result = 0.742 z-score
Strand = TTAGGTATCGACACCGGGTTAGTGCTA; result = 0.201 z-score
Strand = GACGGATTCCTTTTCCTGACGTGCTAG; result = 5.61 z-score
Strand = TGCAACATCTACAATGGCTTTGTGCTA; result = -0.169 z-score
Strand = GTAGATCTCAGACTGGATTAGTGCTAG; result = 0.0552 z-score
Strand = TTAGAACTGGGTATCGATTAGTGCTAG; result = -0.148 z-score
Strand = TTAGATTTCAGTCTCGATCAGTGCTAG; result = 2.38 z-score
Strand = GACGGTATCCTCTTCCTGACGTGCTAG; result = 2.66 z-score
Strand = TCACCTTGAACTTTGGCACTGTGCTAG; result = -0.00325 z-score
Strand = GAGGGTGTTCTTTTCTGTTGGTGCTAG; result = 0.572 z-score
Strand = TCCACTTGTCTTTTCATTTTGTGCTAG; result = 1.66 z-score
Strand = GAGGGACTGGACTATCGGGACGTGCTA; result = -0.91 z-score

Block 2 — target: ATF3, bZIP domain (human); method: DHFR protein complementation; medium: yeast; baseline: wild-type JUN-FOS pair; direction: higher = stronger binding; quantity: binding fitness
Notes: single substitutions, most at no-binding floor
Parent: JUN, bZIP domain (human); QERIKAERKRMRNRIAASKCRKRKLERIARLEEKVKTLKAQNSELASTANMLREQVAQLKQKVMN; partner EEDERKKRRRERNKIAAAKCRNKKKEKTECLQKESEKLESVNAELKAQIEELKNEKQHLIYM
Variant = K39E; result = -0.309 natural log
Variant = A49H; result = -0.346 natural log
Variant = T48W; result = -0.364 natural log
Variant = T48L; result = -0.132 natural log
Variant = L59H; result = -1.37 natural log
Variant = I28W; result = -0.18 natural log
Variant = R30N; result = -0.156 natural log
Variant = L31T; result = -0.745 natural log
Variant = S47R; result = -0.0235 natural log
Variant = S43Y; result = -0.112 natural log
Variant = N42A; result = -0.508 natural log
Variant = V56Q; result = -1.46 natural log
Variant = E54A; result = -0.22 natural log
Variant = L52F; result = -0.781 natural log
Variant = M51R; result = -0.0932 natural log
Variant = V35L; result = -0.251 natural log
Variant = A29S; result = -0.174 natural log
Variant = A29M; result = -0.439 natural log
Variant = E33M; result = -0.238 natural log
Variant = E32S; result = -0.26 natural log
Variant = R30F; result = -0.0442 natural log
Variant = R53P; result = -1.38 natural log

Block 3 — method: RNA Bind-n-Seq; form: RNA; medium: in vitro; concentration: 200 nM; notes: whole 134-nt RNA, ends assumed; added: 150 mM LiCl; baseline: input library; direction: higher = stronger binding; quantity: log2 enrichment; library: 7-deaza-guanosine replaces G
Target: Fragile X messenger ribonucleoprotein 1, C-terminal low-complexity region (Fmr1, Mus musculus, UniProt P35922)
All sequences stand within: GGGAGUUCUACAGUCCGACGAUC … UGGAAUUCUCGGGUGUCAAGG
Strand = AAGUCCUGUGCUACACAUCGUAUGUACCGAAUCGGGUUUGGGAGGGAAAAAAAGGGAAAGUAUUAUGUUACGCCGUUCGGAUCUGCACUU; result = -0.317
Strand = UCAAGUCCUGUGCUACACAUCGUAUGUACCGAAUCGGUUUGGAGGAAAAAAAGGAAAGUAUUAUGUUACGCCGUUCGGAUCUGCACUUCC; result = -0.736
Strand = UGUGCUACACAUCGUAUGUACCGAAUCGGCCCCCCCGGGGCCCCCCCGGGGCCCCCCCGGGGAAAGUAUUAUGUUACGCCGUUCGGAUCU; result = -2.62
Strand = AGUCCUGUGCUACACAUCGUAUGUACCGAAUCGGGGAAAAGGGGAAAAGGAAAAGGGGAAAGUAUUAUGUUACGCCGUUCGGAUCUGCAC; result = 0.158
Strand = GCAGGAAGUAAAAACAAAUGGAAAUGCUUCGGAUAGUGGCAGGGGUGGGGGUUGCUAAGGAAAGGGUGGGAUGGGAGUGUGUAAAGAGUU; result = 1.41
Strand = CCUCAGUGUCAUUUAUGAAAAGAGGGGACCAGAAGCCAAAGACUUAGUAUAUUUUCUUUUCCUCUGUCCCUUCCCCCAUAAGCCUCCAUU; result = 1.04
Strand = UGGCCCUGGUGGCAUGCGGGGAGGAAGAGGUUGCCUCAUGGAUCGUGGUGGUCCCGGUGGAAUGUUCAGAGGUGGCCGUGGUGGAGACAG; result = 0.184
Strand = UCAAGUCCUGUGCUACACAUCGUAUGUACCGAAUCGGGUGGGUGGGAAAAAGGGAAAGUAUUAUGUUACGCCGUUCGGAUCUGCACUUCC; result = -0.949
Strand = GCAGGAAGUAAAAACAAAUGGAAAUGCUUCGGAUAGUGGCAGGGGUGGGGGUUGCUAAGGAAAGGGUGGGAUGGGAGUGGGUAACGAGUU; result = 1.76
Strand = GUCCUGUGCUACACAUCGUAUGUACCGAAUCGGUUUUUUUGGAAAAAAAGGAAAAAGGAAAGUAUUAUGUUACGCCGUUCGGAUCUGCAC; result = -2.55
Strand = UGGCCCUGGUGGCAUGCGGGGAGGAAGAGGUGGCCGCAUGGAUCGUGGUGGUCCCGGUGGAAUGUUCAGAGGUGGCCGUGGUGGAGACAG; result = 1.14

Block 4 — target: CCNA1, cyclin fold, Cln2 fusion (human); method: yeast growth competition, sequencing; medium: yeast; notes: weak parent motif; baseline: not given; direction: higher = stronger binding; quantity: normalised enrichment score
Parent: SAMHD1 docking peptide (human); ASKSRVQLFKDDP; partner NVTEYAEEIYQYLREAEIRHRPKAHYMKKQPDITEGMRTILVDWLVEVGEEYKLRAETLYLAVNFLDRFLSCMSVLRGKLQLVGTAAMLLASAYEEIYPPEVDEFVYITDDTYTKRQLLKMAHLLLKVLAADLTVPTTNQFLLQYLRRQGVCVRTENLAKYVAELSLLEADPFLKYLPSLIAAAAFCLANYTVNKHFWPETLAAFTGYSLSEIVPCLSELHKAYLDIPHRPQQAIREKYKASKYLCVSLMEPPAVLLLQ
Variant = ASKSRVQLFKWDP [D11W]; result = 0.0918
Variant = ASKKRVQLFKDDP [S4K]; result = -0.0489
Variant = ASKSRVQLFKPDP [D11P]; result = 0.341
Variant = ASKSRNQLFKDDP [V6N]; result = 0.375
Variant = ASKSRVQLFKLDP [D11L]; result = -0.25
Variant = ASKSRVQGFKDDP [L8G]; result = 0.392
Variant = AFKSRVQLFKDDP [S2F]; result = 0.262
Variant = ASKSRVQLFKNDP [D11N]; result = 0.285
Variant = ASKSGVQLFKDDP [R5G]; result = 0.119
Variant = ASKSRSQLFKDDP [V6S]; result = -0.351
Variant = ASKFRVQLFKDDP [S4F]; result = 0.202
Variant = ASKHRVQLFKDDP [S4H]; result = 0.588
Variant = ASKSRVQLFKCDP [D11C]; result = -0.0413
Variant = ASKSRYQLFKDDP [V6Y]; result = 0.0842
Variant = ASKSRVQLFKDWP [D12W]; result = -0.3
Variant = ASKSRVQLPKDDP [F9P]; result = 0.306
Variant = AKKSRVQLFKDDP [S2K]; result = 0.152
Variant = ASKSRVQLFKDKP [D12K]; result = 0.109
Variant = ASKSRVALFKDDP [Q7A]; result = -0.236
Variant = ASKSRVQTFKDDP [L8T]; result = 0.336
Variant = ASKSRVQLFADDP [K10A]; result = 0.156
Variant = ASKSRVQLFYDDP [K10Y]; result = -0.103
Variant = ASKSRVDLFKDDP [Q7D]; result = -0.158
Variant = ASKSRVQLFLDDP [K10L]; result = 0.343
Variant = ASKSRVQLKKDDP [F9K]; result = -0.0834

Repeated from above (block 1):
Strand = GACGATATCGGGACTGGAGGCGTGCTA; result = -0.0526 z-score
Strand = TTAGGACTGGGTTTCGGATAGTGCTAG; result = 2.05 z-score
Strand = TCAAGCATTACTTTAGGACTGTGCTAG; result = -0.407 z-score
Strand = GACGATATCGGGTATCGATACGTGCTA; result = 0.742 z-score
Strand = TTAGGTATCGACACCGGGTTAGTGCTA; result = 0.201 z-score
Strand = GACGGATTCCTTTTCCTGACGTGCTAG; result = 5.61 z-score
Strand = TGCAACATCTACAATGGCTTTGTGCTA; result = -0.169 z-score
Strand = GTAGATCTCAGACTGGATTAGTGCTAG; result = 0.0552 z-score
Strand = TTAGAACTGGGTATCGATTAGTGCTAG; result = -0.148 z-score
Strand = TTAGATTTCAGTCTCGATCAGTGCTAG; result = 2.38 z-score
Strand = GACGGTATCCTCTTCCTGACGTGCTAG; result = 2.66 z-score
Strand = TCACCTTGAACTTTGGCACTGTGCTAG; result = -0.00325 z-score
